Measured values pooled from the literature.
Parts stem from different laboratories: compare values within a part only.

Sample 1
Target: Replicase polyprotein 1ab, polymerase (rep, Severe acute respiratory syndrome coronavirus 2, UniProt P0DTD1)
Effect on: enzyme activity
Mode: inhibitor
Concentration: 20 µM
| Compound | inhibition |
| --- | --- |
| Cc1cccc2c1CC[C@H](CN1CCC(c3c(Cl)cccc3Cl)CC1)C[C@@H]2O | 1.4% |
| CCOC(=O)c1c(C)[nH]c2ccc3c(c12)CN1CCc2cc(OC)ccc2C1O3 (centres unmarked) | -2.86% |
| CCOc1ccc(Nc2nc(-c3c(C)nc4ccccn34)cs2)cc1 | -3.72% |
| Cc1ccc(C(=O)Nc2ccc(CN3CCN(C)CC3)c(C(F)(F)F)c2)cc1C#Cc1cnc2cccnn12 | -1.03% |
| N=C(N)N/N=C/c1c(Cl)cccc1Cl | 12.6% |
| Cc1ccc(/C=N/NC(=O)c2ccccc2Oc2ccccc2)o1 | 3.7% |
| C[C@H]1CO[C@@H]2Cn3cc(C(=O)NCc4ccc(F)cc4F)c(=O)c(O)c3C(=O)N12 | 2.66% |
| Nc1nc(N)c2nc(CNc3ccc(C(=O)N[C@@H](CCC(=O)O)C(=O)O)cc3)cnc2n1 | 0.36% |
| CCOc1ccc2ccccc2c1C(=O)N[C@@H]1C(=O)N2[C@@H]1SC(C)(C)[C@@H]2C(=O)O | 21.4% |
| O=P(O)(O)C(O)(Cc1cnc2ccccn12)P(=O)(O)O | 1.07% |
| CCCCCCCCCCCCCCCCCCN(CCCCCCCCCCCCCCCCCC)CCCN(CCO)CCO | -8.14% |
| C=C1/C(=C\C=C2/CCC[C@]3(C)[C@@H]([C@H](C)/C=C/[C@H](C)C(C)(C)O)CC[C@@H]23)C[C@@H](O)C[C@@H]1O | -0.98% |
| O/N=C/c1cc[n+](COC[n+]2ccc(/C=N/O)cc2)cc1 | -6.89% |
| COc1ccc(C(C)(C)C)cc1CN[C@H]1C2CCN(CC2)[C@H]1C(c1ccccc1)c1ccccc1 | 5.11% |
| O=C(CC(c1ccccc1)c1ccccc1)N1CCN(C(c2ccccc2)c2ccccc2)CC1 | -15.2% |
| CCC1(c2ccccc2)C(=O)NCNC1=O | 11.7% |
| CCCCC[C@H](O)/C=C/[C@@H]1[C@H]2C/C(=C/CCCC(=O)O)O[C@H]2C[C@H]1O | -0.27% |
| CCNCCS(=O)(=O)NC[C@@]1(c2ccccc2)SC(NC(=O)C(C)(C)C)=NN1C(=O)C(C)(C)C | -3.8% |
| CC[C@@]1(O)C(=O)OCc2c1cc1n(c2=O)Cc2cc3ccccc3nc2-1 | -5.16% |
| Cc1cc(OCCN2CCOCC2)nn1-c1ccc2ccccc2c1 | -2.02% |
| Cc1cc(C(=O)Nc2cc(Oc3ccc4nc(NC(=O)C5CC5)cn4n3)ccc2C)n(C)n1 | -7.9% |
| C#C[C@]1(O)C=C[C@H]2[C@@H]3CCC4=CC(=O)CC[C@@H]4[C@H]3CC[C@@]21CC | -6.63% |
| CCCSc1ccc2[nH]c(NC(=O)OC)nc2c1 | -3.58% |
| C[C@]12C[C@H](O)[C@H]3[C@@H](CCC4=CC(=O)CC[C@@]43C)[C@@H]1CC[C@@H]2C(=O)CO | 3.07% |
| O=C(O)c1ccc(S(=O)(=O)N(Cc2ccc(OC(F)(F)F)cc2)c2ncc(C(F)(F)F)cc2Cl)cc1 | -2.66% |

Sample 2
Target: POU domain, class 5, transcription factor 1, POU domain (Pou5f1, Mus musculus, UniProt P20263, residues 131-289)
UniProt P20263, sequence (131-289, looked up): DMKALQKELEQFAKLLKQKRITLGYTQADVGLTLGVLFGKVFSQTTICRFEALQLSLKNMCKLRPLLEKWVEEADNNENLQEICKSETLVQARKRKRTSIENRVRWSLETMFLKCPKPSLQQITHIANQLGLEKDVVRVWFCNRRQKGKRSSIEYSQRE
Method: Spec-seq
Form: double-stranded DNA, one strand shown
Matrix: in vitro
Concentration: not given
Setting: whole probe, mean of replicates
Relative to: not given
Reading: lower = stronger binding
Shared flanks, not repeated: GAGTCGTCTCGTCAGCAC … CCGTAGAGCACTCAGGTC
| Oligonucleotide | relative binding energy [ln ratio] |
| --- | --- |
| ATGCGTTT | 0.058 |
| GTTGTAAT | 0.718 |
| ATGCCGGC | 0.895 |
| ATGCGTCC | 0.472 |
| AGAGTAAT | 0.662 |
| ATACGAAT | 0.184 |

Sample 3
Cell line: HEK-293T/ACE2
Concentration: concentration not given
Time: 16 (unit not given)
Relative to: vehicle
| SMILES | viability |
| --- | --- |
| Cc1onc(-c2ccccc2)c1-c1ccc(S(N)(=O)=O)cc1 | 104% |
| COC(=O)c1ccccc1O | 98.2% |
| Nc1ccn([C@@H]2O[C@H](CO)[C@@H](O)C2(F)F)c(=O)n1 | 76.8% |

Sample 4
Target: Replicase polyprotein 1ab, main protease (rep, Severe acute respiratory syndrome coronavirus 2, UniProt P0DTD1)
Effect on: enzyme activity
Mode: inhibitor
Concentration: 20 µM
Setting: hit confirmation, with DTT
| Structure (SMILES) | inhibition [%] |
| --- | --- |
| CSc1ccc(C(=O)c2[nH]c(=O)[nH]c2C)cc1 | -0.527 |
| O=C(CCl)c1ccccc1 | 99 |
| CCCCC/C=C\C/C=C\C/C=C\C/C=C\CCCC(=O)O | 40.2 |
| CNS(=O)(=O)C[C@H]1CC[C@H](N(C)c2ncnc3[nH]ccc23)CC1 | 81.2 |

Sample 5
Target: Sal-like protein 4, full length isoform B (SALL4, Homo sapiens, UniProt Q9UJQ4-2, residues 1-616)
Method: universal PBM
Form: double-stranded DNA, one strand shown
Matrix: in vitro
Concentration: not given
Setting: 8-mer, flanks averaged, mean of replicates
Reading: higher = stronger binding
| Oligonucleotide | E-score |
| --- | --- |
| CAGCGCAC | -0.195 |
| CGCGATGC | -0.29 |
| CAGCGTAA | 0.043 |
| CAGCAGTA | -0.0193 |
| GACTTTAA | 0.179 |
| CAAGTGCG | -0.0966 |
| CTCGCTGA | -0.173 |
| AAGCTCAC | -0.212 |

Sample 6
Target: ATP-dependent RNA helicase DDX3X, helicase core (DDX3X, Homo sapiens, UniProt O00571, residues 132-607)
UniProt O00571, sequence (132-607, looked up): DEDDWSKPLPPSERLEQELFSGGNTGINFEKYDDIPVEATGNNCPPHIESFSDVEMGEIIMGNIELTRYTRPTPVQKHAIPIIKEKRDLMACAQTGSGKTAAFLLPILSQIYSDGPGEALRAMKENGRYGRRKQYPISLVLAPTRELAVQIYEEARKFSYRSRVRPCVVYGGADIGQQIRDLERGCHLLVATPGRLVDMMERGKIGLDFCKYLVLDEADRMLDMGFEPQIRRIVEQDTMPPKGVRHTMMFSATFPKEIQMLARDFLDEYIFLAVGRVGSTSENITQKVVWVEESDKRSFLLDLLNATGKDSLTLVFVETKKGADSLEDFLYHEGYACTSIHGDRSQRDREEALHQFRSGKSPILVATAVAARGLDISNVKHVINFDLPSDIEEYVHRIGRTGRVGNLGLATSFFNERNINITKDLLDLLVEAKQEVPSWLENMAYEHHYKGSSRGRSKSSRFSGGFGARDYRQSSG
Method: RNA Bind-n-Seq
Form: RNA
Matrix: in vitro
Concentration: 90 pmol
Setting: 4-mer, random 30-nt RNA, single round
Added: 3 µM iPr-DMDA-PatA, 2 mM ADP, 2 mM phosphate
Relative to: input library
Reading: higher = stronger binding
| Oligonucleotide | 4-mer enrichment [fold] |
| --- | --- |
| AUAU | 1.26 |
| GACA | 1.1 |
| GCAC | 0.849 |
| CUAC | 0.962 |
| UAUC | 1 |
| CCUG | 0.822 |
| GAUC | 0.996 |

Some of these lines once more (sample 1):
| Compound | inhibition |
| --- | --- |
| CCOc1ccc(Nc2nc(-c3c(C)nc4ccccn34)cs2)cc1 | -3.72% |
| Cc1ccc(C(=O)Nc2ccc(CN3CCN(C)CC3)c(C(F)(F)F)c2)cc1C#Cc1cnc2cccnn12 | -1.03% |
| N=C(N)N/N=C/c1c(Cl)cccc1Cl | 12.6% |
| Cc1ccc(/C=N/NC(=O)c2ccccc2Oc2ccccc2)o1 | 3.7% |
